Published values gathered from unrelated publications.
Protocols differ between the studies behind these lines. ± marks the error that the study gave.
Cell line: HepG2

Structure (SMILES) | test | setting | IC50
CC1CCC2C(C)C(OC(=O)CCC(=O)N3CCN(CC(=O)Nc4ccc([N+](=O)[O-])c(C(F)(F)F)c4)CC3)OC3OC4(C)CCC1C32OO4 (stereo not drawn) | cell growth or viability, CCK-8 | – | 0.86 µM
O=C1C(Cl)=C(Cl)C(=O)c2ccccc21 | cell growth or viability, MTT | – | 110 µM
Cc1ccc(C(C)C)cc1.Cc1ccc(C(C)C)cc1.Cc1ccc(C(C)C)cc1.Cc1ccc(C(C)C)cc1.O=S(=O)(O)C(F)(F)F.O=S(=O)(O)C(F)(F)F.O=S(=O)(O)C(F)(F)F.O=S(=O)(O)C(F)(F)F.c1ccc2c3c4ccccc4c(c2c1)-c1cn(nn1)-c1cc[n+](cc1)[Ru-]1[O]c2ccc4c5c(ccc(c25)=[O+]1)=[O+][Ru-]([O]4)[n+]1ccc(cc1)-n1cc(nn1)-c1c2ccccc2c(c2ccccc12)-c1cn(nn1)-c1cc[n+](cc1)[Ru-]1[O]c2ccc4c5c(ccc(c25)=[O+]1)=[O+][Ru-]([O]4)[n+]1ccc(cc1)-n1cc-3nn1 | cell growth, MTT | 24 h, 20 µM preincubated in medium 0 h at 37 °C | 2 ± 0.01 µM
O=C1C=CC(=C(c2ccc(O)cc2)c2c(C#Cc3ccc(O)cc3)cccc2-c2ccc(O)cc2)C=C1 | cell growth or viability, MTT | 48 h | 13.3 µM
O=C1C=CC(=O)c2ccccc21 | cell growth or viability, MTT | – | 32.5 µM
Nc1c(C(=O)N2CCCC2)sc2nc(-c3ccccc3)ccc12 | cell growth or viability | 72 h | > 100 µM
NC(=O)c1cccc2c3c([nH]c12)CCC(N)C3 (stereo not drawn) | cell growth or viability | – | 0.2 µM
CC[C@H](C)[C@@H]1NC(=O)[C@@H]2CCCN2C(=O)[C@H](C)NC(=O)[C@H](CC(C)C)NC(=O)[C@@H]2CCCN2C(=O)[C@H](C)NC(=O)[C@@H]2CSSC[C@H](NC(=O)[C@H](C)NC(=O)[C@H](C)NC(=O)[C@H](Cc3ccc(O)cc3)NC(=O)[C@@H]3CCCN3C(=O)CNC(=O)[C@H](Cc3c[nH]c4ccccc34)NC1=O)C(=O)N[C@@H](CC(C)C)C(=O)N[C@@H](CO)C(=O)N[C@@H](C)C(=O)N[C@H]1CSSC[C@H](NC(=O)[C@H](C(C)C)NC(=O)[C@@H]3CCCN3C(=O)CNC(=O)CNC(=O)CNC(=O)[C@H](C)NC(=O)[C@H](C)NC(=O)[C@H](CC(C)C)NC1=O)C(=O)N[C@@H](CC(C)C)C(=O)N[C@@H](C)C(=O)N[C@@H](C(C)C)C(=O)N2 | – | – | > 128 µg/mL
c1cnc2c(c1)c1nccnc1c1cccnc12 | cell growth or viability, MTT | 48 h | > 50 µM
CCC1(c2ccc(NC(=O)CCC(=O)OC3OC4OC5(C)CCC6C(C)CCC(C3C)C46OO5)cc2)CCC(=O)NC1=O (mixture of isomers) | cell growth or viability, CCK-8 | – | > 50 µM
Cc1ccc2c(Br)cc(Br)c([O-])c2n1.Cc1ccc2c(Br)cc(Br)c([O-])c2n1.[Co+2].c1cnc2c(c1)c1nccnc1c1cccnc12 | cell growth or viability, MTT | 48 h | 7.03 µM
Cc1ccc(C2=CC(C)(C)Oc3ccc(-c4ccc(-c5ccc(C(=O)O)cc5)[nH]4)cc32)cc1 | – | – | 27.5 µM

Repeated from above:
Structure (SMILES) | test | setting | IC50
NC(=O)c1cccc2c3c([nH]c12)CCC(N)C3 (stereo not drawn) | cell growth or viability | – | 0.2 µM
